Measured values collected from several papers.
Every numbered part comes from another study and shows a few of its results, in no order. Changes are numbered by the printed parent chain.

Sample 1
Target: Sal-like protein 4, full length isoform B (SALL4, Homo sapiens, UniProt Q9UJQ4-2, residues 1-616)
Method: universal PBM
Molecule type: double-stranded DNA, one strand shown
Sample: in vitro
Tested at: not given
Setting: 8-mer, flanks averaged, mean of replicates
Reading: higher = stronger binding
Oligonucleotide | E-score
AACCATCT | -0.074
CCGAAGAA | -0.022
AACCTTAT | 0.206
AGCAGTTA | 0.117
ATCGGCTC | -0.247
ATTACGCA | 0.187
TACAACGA | 0.167
ATCGCTGA | 0.0463
GTGGGTCA | -0.115
ACTCGATC | -0.116
GCATGGCC | -0.137
AACTGCCC | -0.116
CTACTCTC | -0.0189
GCTTACCC | -0.181

Sample 2
Target: CCNA2, cyclin fold, Cln2 fusion (human)
Method: yeast growth competition, sequencing
Sample: yeast
Setting: strong parent motif
Relative to: not given
Reading: higher = stronger binding
Starting sequence: CCP110 docking peptide (human); EKVKRRLDLDIDG
Change | normalised enrichment score
R5A | 0.312
I11A | 3.95
E1A | 5.2
R5K L9F | 6.14
R5A L7A | -0.189
L9A | 0.31
R6A | 1.57
D8A | 3.16
V3A | 3.11
R5K | 2.44

Sample 3
Target: RNA binding protein fox-1 homolog 2, RRM domain, GST-SBP tag (RBFOX2, Homo sapiens, UniProt O43251-10, residues 100-194)
Method: RNA Bind-n-Seq
Molecule type: RNA
Sample: in vitro
Tested at: 365 nM
Setting: natural RNA segment, single round, ends assumed
Relative to: no-protein control
Reading: higher = stronger binding
Target sequence (chain): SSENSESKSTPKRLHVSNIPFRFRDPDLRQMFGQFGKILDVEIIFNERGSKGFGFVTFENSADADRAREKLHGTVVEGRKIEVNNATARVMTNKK
Oligonucleotide | RBNS enrichment (R)
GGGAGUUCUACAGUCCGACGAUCAUGAGAUAUCAUGUUUUAGCAUUCCAUUUUACUGACUAGGGUAGAAGAACACUUUUCUUGGCUACAUUUGGAGGAUACCCAGGGAGUCUUGGGUGUUCCUUAUCUGGGGAUGGAAUUCUCGGGUGCCAA | 0.28
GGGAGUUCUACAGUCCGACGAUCGUCGCUGCCCCCACCAGAGUCCUAAAACCUGGAUGGACUUGGACGGGACAAGAGGCCUGGACUGAGAUGUGAGUCCCAUGGAAGACUUCCUCUCCACCCCCCACAUCGGUUGGAAUUCUCGGGUGCCAA | 0.381
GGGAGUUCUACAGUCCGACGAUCAGUAUAGGUCUACUGAAAAACCAUUGUAAAUGGACGUUACAGGUAUGCUGUAUUUUUGAAGGUAUUUUGUUGUAUUAAGUUUGAUGAAGCUAAAAUUAGGGAACUCUGAAUGGAAUUCUCGGGUGCCAA | 0.915
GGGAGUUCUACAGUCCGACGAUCUCAGAAAUUUGAUUUAUUCUUGGACUGUACUCUUCGCAUGGACUGGGAAGUUCUUUUAAAUCAUACUAUUAAGACGACCAUCUCUUCUGUUAAAUUGCAGUACGUGUUAUUGGAAUUCUCGGGUGCCAA | 2.74
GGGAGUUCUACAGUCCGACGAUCGAAAAAUAAUUUAGCUGUGUUUUAGACAGCAUUAGAAUAUAUUGUUCAGCACAGUAAAAUAUAUUUGAAAUUUGAUAAGCCAAAAAUGUGGUUUUGAAUGAAUAUUUUGUUGGAAUUCUCGGGUGCCAA | 0.945
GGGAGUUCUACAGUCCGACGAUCGUCCUGGGCAGGCAGAGCUGGGGUUGGCCUGAUCCCACCUGCCUUGCUCUUGGAAAGGACAUCAGGUGUGGGCAAAGCAUCCUUGAAGCCCAGACAACACAGGCAUGGCCUGGAAUUCUCGGGUGCCAA | 1.4
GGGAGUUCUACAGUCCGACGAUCAGAACUGGAUGAGCCAAACAGCCACCAUCUUUACUCUUGACUAAAUGGACCUAUCAAGAAUAUUAAAAAGCUUGGAAAUACCCUAUCCACUUUUGAAAAAUUAGAAUUCCUGGAAUUCUCGGGUGCCAA | 0.422
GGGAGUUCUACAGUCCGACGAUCCCUCUGGCCCCUUACAUGCUGCCAGAGGAGAAGGUGUUUGUUUGAGAUUCAUUCCACUUGAAGUGUCUCCUGGGAUCCCCACAGCUGCGUAUGGCUGGGAAAUGGACUUAUGGAAUUCUCGGGUGCCAA | 0.278
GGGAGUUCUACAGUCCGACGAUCAUUAAACAGAUUGUCUCAUCGUUGCAUCUAUUUUCCAUGUAUUCAUCAAGAGACCAUUUUAUGACACAUUAAGAAGAAAGAACCUUUUUGAAACAAACUCCAGGCCCUUUUGGAAUUCUCGGGUGCCAA | 0.738
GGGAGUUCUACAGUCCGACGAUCUUGUAUUGUGUAUGUCAAGAAUCACUCCAUUGUUCGUGUUGCUUUUUGCACUGUUUGUUCCCCGCUGUGUUUUGAGCUAGAACAAGGAGUUGCCUGGGAUUGGGAGCUGUUGGAAUUCUCGGGUGCCAA | 1.66
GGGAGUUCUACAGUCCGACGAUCUAGAGAUUAGGAGACCCUUUGUGGAAGAGUGAACUUCACAAAUAGCACAAGUUCAGAAGACACAGAGGGUGUCUUCUCACACACCACACUGUGACGAGGAACUGCCAUUGUGGAAUUCUCGGGUGCCAA | 0.341
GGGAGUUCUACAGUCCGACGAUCGGGGGCAAGAAGACCAUGUUCCCUGCCUGUUCCCCCAGCUGCUUCUCCCAUCUUUUCUCUCUGUUCUCAGCUCCCCUGUCCCCUCCCUCGGCUCUAGACUUGGGGGAGGGUGGAAUUCUCGGGUGCCAA | 1.21

Other studies, line by line
Substance | target | assay | test system | conditions | how to read | measurement | value
PhoQ, residues 284 288 289 292 302 303 GNNTDL | PhoP, residues 12 14 15 18 19 NIMAP (Escherichia coli, UniProt P23836) | Sort-seq, item: YFP reporter | E. coli | PhoQ-PhoP variant library, with: 10 µM Mg2+ | relative to: high Mg2+ state, higher = stronger signaling | fold induction | 0.589

A few entries again (sample 1):
Oligonucleotide | E-score
TACAACGA | 0.167
ATCGCTGA | 0.0463
GTGGGTCA | -0.115
